Measurements from different studies.
Lines come from different studies, so protocols differ. Values joined by “and” are separate records of one study, mostly repeats; a detail may differ. Numbers after ± are the reported error.
Sequence of UniProt P11712 (whole entry, looked up): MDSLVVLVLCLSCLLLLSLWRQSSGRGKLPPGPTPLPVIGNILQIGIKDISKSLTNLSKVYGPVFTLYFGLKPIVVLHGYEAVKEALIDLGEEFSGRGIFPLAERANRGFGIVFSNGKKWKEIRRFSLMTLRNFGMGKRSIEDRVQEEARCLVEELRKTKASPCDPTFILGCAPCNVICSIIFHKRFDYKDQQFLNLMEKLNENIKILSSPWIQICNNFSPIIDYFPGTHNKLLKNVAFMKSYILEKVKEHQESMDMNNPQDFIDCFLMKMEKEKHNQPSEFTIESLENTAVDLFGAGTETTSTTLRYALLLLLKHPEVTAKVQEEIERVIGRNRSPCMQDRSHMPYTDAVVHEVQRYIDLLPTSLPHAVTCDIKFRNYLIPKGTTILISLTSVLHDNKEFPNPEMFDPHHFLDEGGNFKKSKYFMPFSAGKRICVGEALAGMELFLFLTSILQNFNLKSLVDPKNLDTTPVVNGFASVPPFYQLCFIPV

Structure (SMILES) = CCN(CC)CC#CCNc1ccnc2cc(Cl)ccc12; tested on = Salmonella typhimurium; assay = mini-Ames test; system = TA1535; setting = 1000.0 µg/well, with rat liver S9; quantity = revertants per well; result = 1
Structure (SMILES) = O=C(Nc1cnccc1-c1ccc([18F])nc1)c1ccnc(NC(=O)C2CC2)c1; system = FVB/NJ mice, both sexes, liver; setting = intravenous, 30 min, median, no P-gp inhibitor; quantity = SUV; result = 8.85
Structure (SMILES) = O=C1C2CC3CC1CC(C(=O)N1CCN(c4ccc([N+](=O)[O-])c5ncccc45)CC1)(C3)C2; system = ICR mouse, male, plasma; setting = oral, 5 mg/kg; quantity = apparent volume of distribution (Vz/F); result = 219 L/kg
Structure (SMILES) = O=C(O)C(Cc1c[nH]cn1)N1C(=O)c2ccc3c4ccc5c6c(ccc(c7ccc(c2c37)C1=O)c64)C(=O)N(CCN1CCCCC1)C5=O (stereo not shown); assay = shake flask; system = aqueous buffer; setting = pH 8; quantity = logD; result = 2.25
Structure (SMILES) = CCCC[C@H](NC(C)=O)C(=O)N[C@@H](CO)C(=O)N[C@H](C(=O)N1CCC[C@H]1C(=O)N[C@]1(C)CCCCCCC=CCCC[C@@](C)(C(=O)N[C@@H](Cc2ccccc2)C(=O)N[C@@H](CCCCN)C(=O)N[C@@H](CCCNC(=N)N)C(=O)N[C@@H](CC(C)C)C(=O)N[C@@H](CCC(N)=O)C(N)=O)NC(=O)[C@H](CCCNC(=N)N)NC(=O)[C@H](CCCC)NC(=O)[C@H](CC(C)C)NC(=O)[C@H](CCCNC(=N)N)NC(=O)[C@H](CCCNC(=N)N)NC(=O)[C@H](CCCNC(=N)N)NC1=O)[C@@H](C)O; tested on = proteinase K; assay = LC-MS; setting = 25 µM, 61.5 min, pH 7.4; quantity = remaining peptide; result = 84.9%
Structure (SMILES) = [123I]c1ccc2nc(-c3ccc(-n4ccnn4)nc3)cn2c1; system = male Wistar rat, stomach; setting = intravenous, 4 MBq, 1 h; quantity = tracer uptake; result = 0.866 %ID/g
Structure (SMILES) = CC(C)n1ncc2c(C(=O)NCC3CNC3)cc(C3CC3)nc21; assay = metabolic stability; system = mouse, liver microsomes; quantity = microsomal CLint; result = < 9.6 µL/min/mg
Structure (SMILES) = CC(C)(O)c1ncc([S@](N)(=O)=NC(=O)Nc2c3c(cc4c2CCC4)CCC3)s1; system = healthy human; setting = oral, 100 mg single dose, capsule formulation; quantity = total adverse events; result = 100%
Structure (SMILES) = COCC1CN(C2CCN(c3cc(OC)c(Nc4ncc(Br)c(Nc5ccc6c(c5P(C)(C)=O)OCCO6)n4)cc3C)CC2)C1; system = EGFR-mutant NSCLC patients, plasma; setting = oral, 150 mg single dose, geometric mean; quantity = Cmax; result = 685 ng/mL
Structure (SMILES) = Nc1ncc(-c2cc(-c3cnn(CC(F)(F)F)c3)ncc2F)nc1C(=O)NC1CNCC(F)C1 (stereo not shown); tested on = PIK3CD; assay = KINOMEscan; setting = 1 µM; scale = baseline: DMSO control; quantity = remaining binding; result = 83%
Structure (SMILES) = Cc1ccnc(-c2cc(C(=O)O)ccn2)c1.F[P-](F)(F)(F)(F)F.F[P-](F)(F)(F)(F)F.[Ru+2].c1ccc(-c2ccccn2)nc1.c1ccc(-c2ccccn2)nc1; assay = RNO/histidine method; system = PBS; setting = added: irradiation 365 nm; scale = baseline: phenalenone; quantity = singlet oxygen yield; result = 8%
Structure (SMILES) = CN1CCCNC(=O)c2cccc(c2)C(=O)NCCCN(C)CCCNc2cccc3c2C(=O)c2cccc(c2C3=O)NCCC1; tested on = mouse bone marrow cells; assay = CCK-8; setting = 0.15 µM, 48 h; scale = baseline: untreated; quantity = viability; result = 98.5%
Structure (SMILES) = Nc1ccc(-c2cc(Cl)c(Cl)c3[nH]c4c(c23)CN(C(=O)CO)CC4)cn1; system = C57BL/6 mice, whole blood; setting = intravenous, 0.5 mg/kg; quantity = blood clearance; result = 36 mL/min/kg
Structure (SMILES) = C=CC(=O)Nc1cccc(Cn2ncc3cnc(Nc4cnn(CCOC)c4)nc32)c1; system = human hepatocytes; quantity = scaled intrinsic clearance; result = 57.6 mL/min/kg
Structure (SMILES) = CNC(=O)C1CCCN(C(=O)C2CC3CCC2N3C(=O)[C@@H]2C[C@@H](O)CN2C(=O)NCc2cccc(Cl)c2F)C1 (mixture of isomers); tested on = Cytochrome P450 2C9 (CYP2C9, Homo sapiens, UniProt P11712); assay = preincubation without NADPH; system = human; setting = 50 µM; scale = baseline: negative control; quantity = remaining activity; result = 102% and 103% and 105%
Structure (SMILES) = COC1CN([C@H]2CC[C@H]([C@@]3(C)Oc4c(Cl)cc(C(=O)NCc5c(SC)cc(C)[nH]c5=O)c(C)c4O3)CC2)C1; assay = RNA-seq, item: DENND2B mouse homolog; system = mouse, HT-1376 xenograft, whole blood; setting = dose not given; scale = baseline: vehicle; quantity = log2 fold change; result = 1.55
Structure (SMILES) = C=C[C@]1(C)C[C@@H](OC(=O)CSc2ccc(NC(=O)c3ccco3)cc2)[C@]2(C)[C@H](C)CC[C@]3(CCC(=O)[C@H]32)[C@@H](C)[C@@H]1O; system = Mycoplasma gallisepticum-infected chickens, plasma; setting = intramuscular, 80 mg/kg, 8 h; quantity = plasma concentration; result = 99.6 ng/mL and 121 ng/mL and 105 ng/mL and 122 ng/mL and 104 ng/mL and 249 ng/mL and 242 ng/mL and 163 ng/mL
Structure (SMILES) = CC(C)C[C@@H]1NC(=O)[C@H](CCCCN)NC(=O)CNC(=O)[C@H]2CCCN2C(=O)[C@H](CCCCN)NC(=O)[C@H](CC(C)C)NC(=O)[C@H](CCCCN)NC(=O)[C@H](CC(C)C)NC(=O)[C@H](CCCCN)NC(=O)C(N)CCC=CCCC(C(N)=O)NC(=O)[C@H](CCCCN)NC(=O)[C@H](CC(C)C)NC(=O)[C@H](CCCCN)NC1=O (stereo partly shown); assay = RP-HPLC C18; setting = hydrophobicity; quantity = retention time; result = 16.3 min
Structure (SMILES) = CNS(=O)(=O)Nc1nccc(Cc2c(C)c3ccc(Oc4ncccc4F)cc3oc2=O)c1F; tested on = NCI-H1581; assay = cell viability; setting = 7 days; quantity = IC50; result = 137 nM
Structure (SMILES) = Cc1c(Cc2ccc(F)c(OC(C)C(=O)O)c2)c2ccc(C(=O)NC(C)c3ccc(C(C)(C)C)cc3)cc2n1CC(C)C (stereo not shown); system = human liver microsomes; setting = 1 µM, added: microsomes 1 mg/mL; quantity = half-life; result = > 1 h
Structure (SMILES) = Cc1cc(-c2ccc(C(=O)[C@@H]3CCCC[C@H]3C(=O)Nc3cnn4c3C(=O)NCC4)cc2)[nH]n1; system = human, urine; setting = oral, 200 mg, 144-168 h; scale = baseline: dose; quantity = recovery of radioactivity per interval; result = 0.01%
Structure (SMILES) = COc1ccc2c(c1)CCn1c[n+]3c(c1-2)-c1ccc(OC)cc1CC3; system = female NSG mice, blood; setting = 6 mg/kg, day 14, 5 days per week; quantity = Eosinophils; result = 7.16 ± 6.64%

Excerpt of the above:
Structure (SMILES) = O=C1C2CC3CC1CC(C(=O)N1CCN(c4ccc([N+](=O)[O-])c5ncccc45)CC1)(C3)C2; system = ICR mouse, male, plasma; setting = oral, 5 mg/kg; quantity = apparent volume of distribution (Vz/F); result = 219 L/kg
